Measured values collected from several papers.
Protocols differ between the studies behind these lines. ± gives the spread as reported.

Structure (SMILES)	assay	test system	setting	how to read	quantity	value
CC[C@H](C)[C@H](NC(=O)[C@H](CCCCN)NC(=O)[C@@H](NC(=O)[C@H](CS)NC(=O)[C@H](CCCNC(=N)N)NC(=O)[C@H](CCCNC(=N)N)NC(=O)[C@H](CC(N)=O)NC(=O)[C@H](CCCNC(=N)N)NC(=O)[C@H](CS)NC(=O)[C@@H](NC(=O)[C@H](CO)NC(=O)[C@@H](NC(=O)[C@H](CS)NC(=O)[C@H](CCCCN)NC(=O)[C@@H](N)CCCNC(=N)N)[C@@H](C)CC)C(C)C)[C@@H](C)CC)C(=O)N[C@@H](CS)C(=O)N[C@@H](CCCNC(=N)N)C(=O)O	LC/MS	PBS	0.1 mg/mL	relative to: LC peak area	two-disulfide form	37%
CC1CCc2c(sc3nc(SCCCN4CCCCC4)nc(N)c23)C1 (stereo not shown)		mouse liver microsomes	30 min		metabolized compound	99%
CCCCCc1cc(OC(=O)C(NC(=O)C(N)C(C)C)C(C)C)c2c(c1)OC(C)(C)C1CCC(C)=CC21 (stereo not shown)		rabbit cornea in vitro	RMβCD, Cremophor, polysorbate or tyloxapol formulations		transcorneal permeation	not detected
O=C1CC(=O)N(c2ccccc2)c2cc(Cl)ccc2N1		129X1/SvJ mice, whole blood	oral, 100 mg/kg, 2 h		blood concentration	20.6 µM
Cc1cc(C)c2cc(C(=O)NC3CCCCCCC3)[nH]c2c1		mouse	oral, 100 mg/kg		AUC(0-t)	31.4 mg·h/kg
CN(C)CC1CCCCC1(O)c1cccc(O)c1 (stereo not shown)		Caco-2	10 µM, 3 h, pH 7.4		efflux ratio	1.1
Nc1nc(SCCCN2CCCCC2)nc2sc3c(c12)CCC(c1ccccc1)C3 (stereo not shown)		mouse liver microsomes	30 min		metabolized compound	47 ± 25%
COc1ccc(-n2cc(C(=O)N3C[C@]4(OC(=O)c5ccccc5NC(C)=O)CC[C@H](OC)[C@@]56[C@@H]4C[C@@H]([C@@H]35)[C@@]3(O)C[C@H](OC)[C@H]4C[C@@H]6[C@]3(O)[C@H]4OC)nn2)cc1		Sprague-Dawley rat, plasma	intravenous, 2 mg/kg		MRT(0-inf)	29 min
CC(C)(C)C1CCc2c(sc3nc(SCCN4CCCC4)nc(N)c23)C1 (stereo not shown)		mouse liver microsomes	30 min		metabolized compound	53 ± 5%
CC(C)C1=C(OC(=O)Cc2ccccc2)C(=O)C2=C(C=C[C@H]3C(C)(C)CCC[C@]23C)C1=O		Artemia salina, artificial seawater	100 ppm, 24 h		mortality	32.4%

Excerpt of the above:
Structure (SMILES)	assay	test system	setting	how to read	quantity	value
CC(C)(C)C1CCc2c(sc3nc(SCCN4CCCC4)nc(N)c23)C1 (stereo not shown)		mouse liver microsomes	30 min		metabolized compound	53 ± 5%
